Measurements gathered from unrelated publications.
Protocols differ between the studies behind these lines. Numbers after ± are the reported error.

| Structure (SMILES) | assay | system | setting | Tmax |
| --- | --- | --- | --- | --- |
| Cc1ccc(NC(=O)c2ccc(CN3CCN(C)CC3)cc2)cc1Nc1nccc(-c2cncc(-c3oncc3C)c2)n1 | – | older healthy human adults, plasma | oral, 75.0 mg single dose, fed, mean | 5 h |
| O=C1O[C@H]([C@@H](O)CO)C(O)=C1O | refers to: vitamin C | healthy human males, fasting, plasma | oral, 150 mg | 3 to 3.5 h |
| O=C([O-])CCCCCCCNC(=O)c1ccccc1O.[Na+] | – | human, mild hepatic impairment, plasma | oral, once daily, day 10, after dose 10, median | 0.5 h |
| CO[C@H]1C[C@@H]2CC[C@@H](C)[C@@](O)(O2)C(=O)C(=O)N2CCCC[C@H]2C(=O)O[C@H]([C@H](C)C[C@@H]2CC[C@@H](O)[C@H](OC)C2)CC(=O)[C@H](C)/C=C(\C)[C@@H](O)[C@@H](OC)C(=O)[C@H](C)C[C@H](C)/C=C/C=C/C=C/1C | – | healthy human subjects, whole blood | oral, 2 mg single dose, median, with: isavuconazole 200 mg once daily after loading | 2 h |
| C#C[C@]1(CO)O[C@@H](n2cnc3c(N)nc(F)nc32)C[C@@H]1O | – | human, plasma | oral, 30 mg once weekly, week 1 | 1 h |
| N[C@]1(C(=O)O)[C@H]2[C@@H](C[C@@H]1F)[C@@H]2C(=O)O | – | human, both sexes, fed, plasma | oral, 20 mg, day 14, multiple ascending dose | 3 h |
| CCCC[C@H](NC(C)=O)C(=O)N[C@H]1CCC(=O)NC[C@@H](C(=O)N[C@@H](Cc2c[nH]c3ccccc23)C(N)=O)NC(=O)[C@H](CCCNC(=N)N)NC(=O)[C@@H](Cc2ccccc2)NC(=O)[C@H](Cc2c[nH]cn2)NC1=O | – | healthy human, both sexes, plasma | subcutaneous, 1.0 mg once daily, day 1, median | 0.5 h |
| Cn1c(Cn2ccc(C(F)(F)F)c(Oc3cc(Cl)cc(C#N)c3)c2=O)n[nH]c1=O | – | human, plasma | oral, 100 mg once daily, median, with: islatravir 2.25 mg once daily | 2 h |
| CC(C)(Sc1ccncc1-c1ccc(C#N)c2ccccc12)C(=O)O | – | healthy human males, plasma | oral, 10 mg once daily, day 14, with: febuxostat 40 mg once daily | 4 h |
| CNc1nc(Nc2ccc(-n3cnc(C)n3)c(OC)c2)nc2c1CC[C@H]2c1ccc(F)cc1 | – | human | oral, 100 mg once daily, day 14, multiple ascending dose, median | 8.5 h |
| NC(=O)N1CCC(CC(=O)N2CCC([C@H]3c4ncc(Br)cc4CCc4cc(Cl)cc(Br)c43)CC2)CC1 | – | human, plasma | oral, 150 mg twice daily, cycle 1 day 15, multiple dose, median, with: gemcitabine 750 mg/m2 | 5.5 h |
| COc1cc(Nc2ncc3c(n2)-c2ccc(Cl)cc2C(c2c(F)cccc2OC)=NC3)ccc1C(=O)O | – | human, phase I | oral, 40 mg single dose | 10.6 ± 9.5 h |
| CCOc1ccc(Cc2cc([C@]34OC[C@](CO)(O3)[C@@H](O)[C@H](O)[C@H]4O)ccc2Cl)cc1 | – | healthy human, plasma | oral, 15 mg, 20% glucose solution, with: glimepiride 1 mg | 2 h |
| CNC(=O)c1ccccc1Sc1ccc2c(/C=C/c3ccccn3)n[nH]c2c1 | – | human, fed, plasma | oral, 7 mg single dose, median | 4 h |
| Cc1ccsc1C(=O)Nc1cc(CN2CCN(C(=O)CO)CC2)ccc1/C=C/c1n[nH]c2ccccc12 | – | human patients, plasma | oral, 50 mg/day, day 28 | 1.5 ± 0.58 h |
| COc1cccc(-c2ccc(NC(=O)C3=C(C(=O)O)CCC3)c(F)c2)c1 | – | healthy male humans, plasma | oral, 40 mg once daily, day 13, median | 3 h |
| CCS(=O)(=O)N1CC(CC#N)(n2cc(-c3ncnc4[nH]ccc34)cn2)C1 | – | healthy Chinese human, plasma | oral, once daily, 2 to 10 mg, day 10 | 0.5 to 1 h |
| C[C@@H](Nc1cc(F)cc(F)c1)c1cc(C(=O)N(C)C)cc2c(=O)cc(N3CCOCC3)oc12 | – | human, plasma | oral, multiple dosing, median | 1.5 to 3 h |
| CNC(=O)c1ccc(-c2cnc3ncc(Cc4ccc5ncccc5c4)n3n2)cc1F | – | human | oral, 400 mg twice daily, tablets | ~2 h |

| Structure (SMILES) | assay | system | setting | Tmax |
| --- | --- | --- | --- | --- |
| CC(C)NC[C@@H](C(=O)N1CCN(c2ncnc3c2[C@H](C)C[C@H]3O)CC1)c1ccc(Cl)cc1 | – | human, Severe hepatic function (Child-Pugh), plasma | oral, 100 mg single dose, median | 1 h |
| N#CCNC(=O)c1ccc(-c2ccnc(Nc3ccc(N4CCOCC4=O)cc3)n2)cc1 | – | human, plasma | oral, 200 mg momelotinib once daily, cycle 1 day 15, median, with: trametinib 1.0 mg once daily | 2 h |
| Cc1[nH]c(/C=C2\C(=O)Nc3ccccc32)c(C)c1CCC(=O)O | – | human patients | oral, 400 mg/m^2 three times daily, after meal, dose 82 | 3.83 ± 1.44 h |
| CC(=O)N[C@H]1CC[C@H](NC(=O)CN2CCN(c3nncc(-c4ccc(C)cc4)n3)CC2)CC1 | – | human, plasma | oral, 120 mg once daily, day 1, fed, median | 3 h |
| O=C(Cc1cccc(OC(F)(F)F)c1)Nc1ccc(CCCCc2nnc(NC(=O)Cc3ccccn3)s2)nn1 | – | human patients, plasma | oral, 600 mg three times daily fasted, cycle 1 day 15 steady state | 1.03 h |
| NC(=O)NO | – | human sickle cell anaemia, whole blood | – | 0.833 to 1.17 h |
| CCn1c(C(=O)c2cc(C)cc(C#N)c2)c(C(C)C)c(=O)[nH]c1=O | – | healthy humans, plasma | oral, 300 mg once daily, 7 days, median | 1.5 h |
| CC(=O)c1c(C)c2cnc(Nc3ccc(N4CCNCC4)cn3)nc2n(C2CCCC2)c1=O | – | human | oral, 95 mg/m^2 repeated doses, day 21 | 6 ± 3 h |
| NS(=O)(=O)c1cc(Cl)c(Cl)c(S(N)(=O)=O)c1 | – | healthy human volunteers, plasma | oral | ≤ 3 h |
| CC(C)[C@H](N)C(=O)NCCCS(=O)(=O)O | – | healthy human, both sexes, plasma | oral, 172 mg capsule, median | 0.63 h |
| CN(CCOc1ccc(CC2SC(=O)NC2=O)cc1)c1ccccn1 (centres unmarked) | – | human, both sexes, plasma | oral, 4 mg, day 3, median, with: SCY-078 750 mg | 1 h |
| CS(=O)(=O)CCNCc1ccc(-c2ccc3ncnc(Nc4ccc(OCc5cccc(F)c5)c(Cl)c4)c3c2)o1 | – | human, plasma | oral, multiple dose | 3.5 h |
| COc1ccc2nc([S@@+]([O-])Cc3ncc(C)c(OC)c3C)[nH]c2c1 | HPLC | human CYP2C19 normal metabolizers, plasma | oral, 40 mg/day, day 5, pantoprazole | 1.86 ± 1.07 h |
| O=C(NC[C@H](O)CO)c1ccncc1Nc1ccc(I)cc1F | – | human | oral, 60 mg, single dose with FOLFIRI | 0.79 h |
| CCc1cc2c(cc1N1CCC(N3CCOCC3)CC1)C(C)(C)c1[nH]c3cc(C#N)ccc3c1C2=O | – | human, hepatic impairment and healthy, plasma | oral, 300 mg single dose, median across groups | ~6 h |
| CON(C)C(=O)N1N=C(c2cc(F)ccc2F)S[C@@]1(CCCN)c1ccccc1 | – | human | intravenous, 1.2 mg/m^2, cycle 1 day 3, median | 1 h |
| O=C(O)CNC(=O)c1c(O)c2ccccc2n(OCC2CC2)c1=O | – | human | oral, 150 mg single dose, fed, high-fat breakfast | 5 h |
| COc1ccnc(C[S+]([O-])c2nc3ccc(OC(F)F)cc3[nH]2)c1OC (centres unmarked) | HPLC | human CYP2C19 poor metabolizers, plasma | oral, 40 mg/day, day 5, esomeprazole | 1.67 ± 0.57 h |
| COCCCCn1c(C(=O)N(CC(C)C)[C@@H]2CNC[C@H](C(=O)N3CCOCC3)C2)nc2ccccc21 | – | non-elderly human, plasma | oral, 160 mg once daily, day 1 | 1 h |
